Results pooled from the literature.
Compare with care: the assays were run in different laboratories. “And” joins repeats or separate records; there may be more than shown. ± marks the error that the study gave.

For `CC(C)C[C@H](NC(=O)[C@H](C)NC(=O)[C@@H](NC(=O)[C@H](CCCNC(=N)N)NC(=O)[C@H](CC(C)C)NC(=O)[C@H](Cc1c[nH]c2ccccc12)NC(=O)[C@@H]1CCCN1C(=O)[C@@H](N)CCCCN)C(C)C)C(=O)N[C@@H](CS)C(=O)N1CCC[C@H]1C(=O)NCC(=O)O`, the viability was 91% and 85.1% and 96.1% (A549; WST-1; 32 µM, 24 h).
The cytotoxicity efficacy of `CCCCSCCCNC(=O)C1CCN(Cc2nc(-c3ccc(CC)cc3)oc2C)CC1` is reported as -21.3% (Vero-E6; CellTiter-Glo ATP; concentration not given, 72 h, retest 8-point duplicates; baseline: DMSO 0%, hyamine -100%, more negative, more toxic).
`Fc1cccc(Nc2ccc3ncc(OCC4CCNCC4)nc3c2)c1` has an EC50 of 8.6 µM (MOLM-13; cell growth, XTT; 7 d).
`CC(C)C[C@@H](N)C(=O)N[C@H](CC(C)C)C(=O)N[C@H](Cc1ccccc1)C(=O)N[C@H](Cc1ccccc1)C(N)=O` gave a viability of 53% (NGF-differentiated PC-12 neurons; 40 µM, 24 h; baseline: untreated).
`Brc1ccc(CCNC2CCCc3c2[nH]c2ccc(-c4ccccc4)cc32)cc1` (stereo not drawn) has a non-viable cells of 95.2 ± 4.8% (A549; 50 µM, 23 h).
The relative survival of `CN(CC[C@H](Oc1cccc2ccccc12)c1cccs1)N=O` is reported as 65.6% (TK6; 2.5 µM, 4 h, added: hamster liver S9; baseline: vehicle).
For `CC(C)C[C@@H](NC(=O)[C@H](N)CCCCN)C(=O)N[C@H](CC(C)C)C(=O)N[C@H](Cc1ccccc1)C(=O)N[C@H](Cc1ccccc1)C(N)=O`, the viability was 100% (NGF-differentiated PC-12 neurons; 5 µM, 24 h; baseline: untreated).
For `CC(C)(c1ccc(O)cc1)c1ccc(O)cc1`, “early apoptotic cells” read 6.2 ± 4.03% (HepG2 spheroids, dissociated; annexin V-FITC/PI flow cytometry; 0.10 µM, 96 h).
The TC50 of `CN1CCCN(S(=O)(=O)c2ccc(-c3ccc4ncnc(Nc5ccc(OCc6cccc(F)c6)c(Cl)c5)c4c3)cc2)CC1` is reported as 44 µM (NIH 3T3; PrestoBlue; 2% FBS medium; 96 h).
With `O=[N+]([O-])c1ccc(-c2nn(-c3ccccc3)c3sc(NC(c4ccccc4O)P(=O)(Oc4ccccc4)Oc4ccccc4)nc23)cc1` (stereo not drawn) the viability was 102% (BNL mouse liver cells; SRB; 0.01 µM, 10% fetal bovine serum).
`CCCCN(CCCC)CCCNC(=O)c1cc(-c2ccc(Cl)s2)nc2ccccc12` gave a cytotoxicity efficacy of 0% (Vero-E6; CellTiter-Glo ATP; concentration not given, 72 h, second round 5-point; baseline: DMSO 0%, hyamine -100%, more negative, more toxic).
With `CC(C)C[C@@H](N)C(=O)N[C@H](CC(C)C)C(=O)N[C@H](Cc1ccccc1)C(=O)N[C@H](Cc1ccccc1)C(=O)N[C@H](C)C(N)=O` the viability was 80.9% (NGF-differentiated PC-12 neurons; 40 µM, 24 h; baseline: untreated).
`O=c1ccc2ccccc2o1` has a chance response of 1.87% (NHEK; ER stress, refers to: ATF4; concentration not given, 6 h).
With `CC(C)C[C@@H](NC(=O)[C@H](N)CCCCN)C(=O)N[C@@H](C(=O)N[C@H](Cc1ccccc1)C(=O)N[C@H](Cc1ccccc1)C(N)=O)C(C)C` the viability was 100% (NGF-differentiated PC-12 neurons; 10 µM, 24 h; baseline: untreated).
`O=NN1CC2CC(C1)c1cc3nccnc3cc12` gave a relative survival of 80.5% (TK6; 80 µM, 4 h, added: hamster liver S9; baseline: vehicle).
For `COc1ccc(N2CCN(CCCNC(=O)c3cc(Nc4ccc(OC)cc4OC)nc4ccccc34)CC2)cc1`, the cytotoxicity efficacy was -14.7% (Vero-E6; CellTiter-Glo ATP; concentration not given, 72 h, second round 5-point; baseline: DMSO 0%, hyamine -100%, more negative, more toxic).
For `Oc1ccc(C(c2ccc(O)cc2)(C(F)(F)F)C(F)(F)F)cc1`, the mitotic cells was 5.26 fold (HepG2 spheroids; flow cytometry, refers to: phospho-histone H3; 40 µM, 24 h; baseline: solvent control).
`N.N.[Cl][Pt][Cl]` has a micronucleated cells of 11.7% (HepaRG; maximum tested).
For `CN1CCCN(S(=O)(=O)c2ccc(-c3ccc4nccc(Nc5ccc(OCc6cccc(F)c6)c(Cl)c5)c4c3)cc2)CC1`, the TC50 was 18 µM (NIH 3T3; PrestoBlue; 2% FBS medium; 96 h).
For `COc1ccc(CC(=O)NC2CCN(Cc3ccc(-c4ccccc4OC)cc3)C2)cc1` (stereo not drawn), the cytotoxicity efficacy was -11.4% (Vero-E6; CellTiter-Glo ATP; concentration not given, 72 h, retest 8-point duplicates; baseline: DMSO 0%, hyamine -100%, more negative, more toxic).
For `O=[N+]([O-])c1ccc(Nc2ccnc3ccc(-c4ccc(S(=O)(=O)N5CCOCC5)cc4)cc23)cn1`, the TC50 was greater than 20 µM (NIH 3T3; cytotoxicity, PrestoBlue; 96 h, 2% FBS).
For `CCCCNC(=O)n1c(NC(=O)OC)nc2ccccc21`, the cytotoxic concentration was greater than 1 µM (WA09 hESC-derived forebrain rosette tissues; neural induction and rosette emergence; 5 days).
Under “micronucleus fold increase”, `CN(C)N=O` is recorded as 3 fold (HepaRG; concentration not given, highest tested concentration; baseline: vehicle).
`CC(C)C[C@@H](NC(=O)[C@H](N)CCCCN)C(=O)N[C@H](CC(C)C)C(=O)N[C@H](Cc1ccccc1)C(=O)N[C@H](Cc1ccccc1)C(=O)N[C@H](C)C(=O)N[C@H](CCC(=O)O)C(N)=O` gave a viability of 99% (NGF-differentiated PC-12 neurons; 80 µM, 24 h; baseline: untreated).
For `Cc1cc(Nc2ccnc3ccc(-c4ccc(S(=O)(=O)N5CCOCC5)cc4)cc23)on1`, the TC50 was greater than 20 µM (NIH 3T3; cytotoxicity, PrestoBlue; 96 h, 2% FBS).
The cytotoxicity efficacy of `Cc1ccc2c(NC(C)c3ccccc3)nc(N3CCNCC3)nc2c1` (stereo not drawn) is reported as 0% (Vero-E6; CellTiter-Glo ATP; concentration not given, 72 h, second round 5-point; baseline: DMSO 0%, hyamine -100%, more negative, more toxic).
The viable cells of `Cc1cc(C(C)(C)c2ccc(O)c(C)c2)ccc1O` is reported as 37.8 ± 2.55% (HepG2 spheroids, dissociated; annexin V-FITC/PI flow cytometry; 0.01 µM, 96 h).
`CC(C)C[C@@H](NC(=O)[C@H](N)CCCCN)C(=O)N1CCC[C@@H]1C(=O)N[C@H](Cc1ccccc1)C(=O)N[C@H](Cc1ccccc1)C(=O)N[C@H](C)C(=O)N[C@H](CCC(=O)O)C(N)=O` gave a viability of 96% (NGF-differentiated PC-12 neurons; 20 µM, 24 h; baseline: untreated).
The maximum response of `CCCCN(CCCC)CCCNC(=O)c1ccc2nc(N3CCCCC3)sc2c1` is reported as -4.82% (Vero-E6; CellTiter-Glo ATP; 72 h, second round 5-point; baseline: DMSO 0%, hyamine -100%, more negative, more toxic).
For `CC(C)C[C@@H](N)C(=O)N1CCC[C@@H]1C(=O)N[C@H](Cc1ccccc1)C(=O)N[C@H](Cc1ccccc1)C(=O)N[C@H](C)C(N)=O`, the viability was 100% (NGF-differentiated PC-12 neurons; 40 µM, 24 h; baseline: untreated).
`COc1ccc(CCNC(=O)c2cc(Nc3ccccc3)nc3ccccc23)cc1OC` has a maximum response of -5.27% (Vero-E6; CellTiter-Glo ATP; 72 h, first round 5-point; baseline: DMSO 0%, hyamine -100%, more negative, more toxic).
For `c1ccc2oc(-c3nn4c(Cn5nnc6ccccc65)nnc4s3)cc2c1`, the CC50 was greater than 100 µM (HEp-2; cytotoxicity).
The viability of `CC(C)C[C@@H](N)C(=O)N[C@H](CC(C)C)C(=O)N[C@H](Cc1ccccc1)C(=O)N[C@H](Cc1ccccc1)C(=O)N[C@H](C)C(=O)N[C@H](CCC(=O)O)C(N)=O` is reported as 99.9% (NGF-differentiated PC-12 neurons; 10 µM, 24 h; baseline: untreated).
With `COc1ccc(Nc2nn3c(-c4ccccc4)ccnc3c2C(=O)Nc2ccc(Cl)cc2)cc1` the viability was 97.7% (WI-38; MTT; serum-free medium; 31.13 µg/mL, 48 h).
With `COc1ncc(Nc2ccnc3ccc(-c4ccc(S(=O)(=O)N5CCOCC5)cc4)cc23)cn1` the TC50 was greater than 20 µM (NIH 3T3; cytotoxicity, PrestoBlue; 96 h, 2% FBS).
With `COc1cc2c(cc1OCC1CC1)NC(=O)C21CCN(c2cc(NC3CC3)ncn2)CC1` the cytotoxicity efficacy was 0% (Vero-E6; CellTiter-Glo ATP; concentration not given, 72 h, first round 5-point; baseline: DMSO 0%, hyamine -100%, more negative, more toxic).
